Measured values from different studies.
Numbered parts are unrelated; each lists some results of a single study. Positions count from the first letter of the parent shown.

Sample 1
Target: ABI1, truncated, D143A, DHFR fusion (Arabidopsis thaliana)
Technique: DHFR PCA, deep sequencing
Sample: yeast
Notes: methotrexate growth selection, single substitutions
Added: (+)-ABA 4.8 µM
Relative to: wild-type fitted maximum
Reading: higher = stronger binding
Starting sequence: PYL1, truncated, DHFR fusion (Arabidopsis thaliana); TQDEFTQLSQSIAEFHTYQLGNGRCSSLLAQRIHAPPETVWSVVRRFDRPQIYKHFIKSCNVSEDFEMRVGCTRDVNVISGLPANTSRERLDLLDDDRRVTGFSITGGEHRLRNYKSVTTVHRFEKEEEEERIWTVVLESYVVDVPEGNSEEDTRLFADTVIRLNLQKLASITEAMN; partner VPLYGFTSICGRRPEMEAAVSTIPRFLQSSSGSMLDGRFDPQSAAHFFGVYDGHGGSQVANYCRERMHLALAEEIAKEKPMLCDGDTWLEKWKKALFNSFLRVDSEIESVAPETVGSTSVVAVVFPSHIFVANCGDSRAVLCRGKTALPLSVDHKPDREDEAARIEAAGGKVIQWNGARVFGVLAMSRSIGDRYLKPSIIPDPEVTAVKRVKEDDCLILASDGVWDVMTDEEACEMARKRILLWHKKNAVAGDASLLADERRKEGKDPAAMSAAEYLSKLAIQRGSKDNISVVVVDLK
| Variant | relative binding score |
| --- | --- |
| E129N | 73.2% |
| I52W | 44.2% |
| H122T | 5.72% |
| V78E | -4.17% |
| Q167G | 56.7% |
| A13L | 63.6% |
| I52M | 66.5% |
| N77A | 79.1% |
| F56C | 0.967% |
| S80E | 0.974% |
| D159Q | -5.14% |
| V137A | 7.42% |
| P83T | 10.3% |
| P83E | 10.2% |

Sample 2
Target: Ras GTPase-activating protein-binding protein 1, RRM domain (G3BP1, Homo sapiens, UniProt Q13283)
UniProt Q13283, sequence (whole entry, looked up): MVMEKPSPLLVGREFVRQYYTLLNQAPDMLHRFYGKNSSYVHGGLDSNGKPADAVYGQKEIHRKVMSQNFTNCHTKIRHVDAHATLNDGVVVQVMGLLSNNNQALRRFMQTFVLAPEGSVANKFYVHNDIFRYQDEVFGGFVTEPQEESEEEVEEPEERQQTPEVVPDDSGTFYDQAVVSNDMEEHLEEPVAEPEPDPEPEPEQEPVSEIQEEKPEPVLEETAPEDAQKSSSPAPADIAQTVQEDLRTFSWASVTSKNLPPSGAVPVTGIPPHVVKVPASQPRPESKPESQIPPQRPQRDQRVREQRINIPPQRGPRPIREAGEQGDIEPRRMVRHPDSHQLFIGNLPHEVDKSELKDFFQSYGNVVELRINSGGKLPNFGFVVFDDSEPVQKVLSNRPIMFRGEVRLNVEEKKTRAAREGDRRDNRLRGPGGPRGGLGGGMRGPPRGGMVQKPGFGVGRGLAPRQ
Technique: RNA Bind-n-Seq
Form: RNA
Sample: in vitro
Tested at: 1 µM
Notes: whole 134-nt RNA, ends assumed
Added: 150 mM KCl
Relative to: input library
Reading: higher = stronger binding
Constant ends, left off below: GGGAGUUCUACAGUCCGACGAUC … UGGAAUUCUCGGGUGUCAAGG
| Oligonucleotide | log2 enrichment |
| --- | --- |
| UUCUGAGAAGGUUGCGCAGCAGCUGUGCCCGGCAGUCUAGAGGCGCAGAAGAGGAAGCCAUCGCCUGGCCCCGGCUCUCUGGACCUUGUC | -0.741 |
| CUGUGCUACACAUCGUAUGUACCGAAUCGGGGCCCCCCGGGGCCCCCCGGGCCCCCCGGGGAAAGUAUUAUGUUACGCCGUUCGGAUCUG | -0.766 |
| AAGUCCUGUGCUACACAUCGUAUGUACCGAAUCAAAUUUAAAUUUAAAUUUUUAAAAAAGUAUUAUGUUACGCCGUUCGGAUCUGCACUU | -0.636 |
| CCUGUGCUACACAUCGUAUGUACCGAAUCGGGAAAAAAAGGAAAAAAAGGAAAAAAAGGGGAAAGUAUUAUGUUACGCCGUUCGGAUCUG | 0.0937 |
| GUCCUGUGCUACACAUCGUAUGUACCGAAUCGUGUGUGUGUGUGUGUGUGUGUGUGUGUAAAGUAUUAUGUUACGCCGUUCGGAUCUGCA | 0.0776 |
| UGGCCCUGGUGGCAUGCGGGGAGGAAGAGGUGGCCUCAUGGAUCGUGGUGGUCCCGGUGGAAUGUUCAGAGGAGGCCGUGGUGGAGACAG | 1.65 |
| AGUCCUGUGCUACACAUCGUAUGUACCGAAUCAAAUUUUUAAACCCCCAAACCCAAAAAAGUAUUAUGUUACGCCGUUCGGAUCUGCACU | -0.55 |
| UGCACACCGCCUUGCACAUAGCAGAGGCUCCGGGCUCACUCCUUCCUGGUGGGAAAGGAAGAUGCCUGUCCUCUCCGUGGAAGACCCUGG | -0.475 |
| CCUGUGCUACACAUCGUAUGUACCGAAUCGGGCCCCCCCGGGCCCCCCCGGGCCCCCCCGGAAAGUAUUAUGUUACGCCGUUCGGAUCUG | -0.687 |
| UGGGAGGUGGAUUUUGUUUAUUUUUUUAGCUCAUGUCCAGGGGUGGGAAUUUUUUUUUAAUAUGUGUCAUGAAUAAAGUUGUUUUUGAAA | 1.27 |
| UGGCCCUGGUGGCAUGCGGGGAGGAAGAGGUGGCCUCAUGGAUCGUGGUGGUCCCGGUGGAAUGUUCAGAGGUGGCCGUGGUCGAGACAG | 2.01 |
| UGGGAGGUGGAUUUUGUUUAUUUUUUUAGCUCAUUUCCAGGGGUGGGAAUUUUUUUUUAAUAUGUGUCAUGAAUAAAGUUCUUUUUGAAA | 2.27 |
| UAACUUUAGAGGAGGAUCUGAUGGAAAUGGCAGUGGACGUGGAUUUGGGGAUGGCUAUAAUGGGUAUGGAGGAGGACCUGGAGGUGGCAA | -0.808 |
| CCUCAAGUCCUGUGCUACACAUCGUAUGUACCGAAUCGGAAAGGUUUGGAGGAAAGUAUUAUGUUACGCCGUUCGGAUCUGCACUUCCAG | -0.0873 |

Sample 3
Target: RNA binding protein fox-1 homolog 2, RRM domain, GST-SBP tag (RBFOX2, Homo sapiens, UniProt O43251-10, residues 100-194)
Technique: RNA Bind-n-Seq
Form: RNA
Sample: in vitro
Tested at: 365 nM
Notes: natural RNA segment, single round, ends assumed
Relative to: no-protein control
Reading: higher = stronger binding
Constant ends, left off below: GGGAGUUCUACAGUCCGACGAUC … UGGAAUUCUCGGGUGCCAA
Construct (chain): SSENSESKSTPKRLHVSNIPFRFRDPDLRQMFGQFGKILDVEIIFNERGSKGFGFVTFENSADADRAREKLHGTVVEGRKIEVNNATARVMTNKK
| Oligonucleotide | RBNS enrichment (R) |
| --- | --- |
| UUACCGGUGUAAAUACCCAGUGUGCUUAUGAGUCAGUUAGUAGACGUCUUCAUUCAUUGGAGUAACUGGUUUAGGCUUUCCAGUUUGGAAAAGGAGCAGAGAGCUGUCCA | 0.337 |
| AAAGAUAUGUCAUAGUUGCCAUAAAAGAGGCUGAUUGUGAAAUUCUGGUGGACUAGGCAAGGUACAGUUUAUGGUUAUCCCCAUCAUCAGCUUAGGUCACUUGAACAUGU | 0.413 |
| AACUAAACAAGUUUGUGUUUUUUAAACCUUGGGCAUUUCAGAGAAAGAGCUGGUCUGGAGUGUCUCCUCACAGUGACCUCUGAGGCCUCAGAAUAGCCUGCCUAAUAAGA | 0.542 |
| AAACUUGAAAAUAGAAAGCAAAAACCCUCAACUGUUGUAAAUCAUGCAAUUAAGGUUGAUUACUUAUAAAUAUGAACUUUGGAUCACUGUAUAGACUGUUAAAUUUGAUU | 0.448 |
| UUUGUGAGUUCAGCACAGGGCCCAGAAGCUGCUGGUUUUAAAUAUUUACUUUCCCAGGAGGUGGGUUUCUUCAGGUGUUUGUUUAAAGAGGGCUGUCACAGGUGAAUGGU | 1.49 |
| UUGCCUCCCUCAGAUAGAAAACAGCCCCCACUCCAGUCCACUCCUGACCCCUCUCCUCAAGGGAAGGCCUUGGGUGGCCCCCUCUCCUUCUCCUAGCUCUGGAGGUGCUG | 0.573 |
| UUGUAAAAUUUAAACAUCGUAUGCGCAUAAAGAAAAAGGAAACAAGAAUUAGGGGAAAAUAACAUUUUCCAAAUAAUUAUAAAAAAUUGUCCUGUGUCUAUGUAUCUAUA | 0.536 |
| UGGCACUAGGCCCUUCACCUUGACUGUGUGCAUGCAUGACCUGCAAUAGAGCCCACCAACCACAUAGAAGUCCCCUGGCUAGAGUCUGAUGCCUGGUGGCUUACCGGACU | 5.5 |
| GAGGCCAUGUGCCAUUCUCCCGGGCCCAGCGCCCGGCCGUCACCCCACCCGAUGACCUGCAUGAAGCCAGCAGCACCCAGAGCCACUCCUGCUGCCCUAGAACUAGCGGU | 5.69 |
| ACAUAAAUCUAAUCAGAUAUCUUAUGUAGUCCAUCUCUGCUGGCUUUAGUAACUGCUCCUAAACUUUUUAACUCUAAAGGAGCGUGGAAAGCCCGCAUCACAGUGUUCAG | 0.3 |
| UGUGUCCAAUCGGAGACAAAAGCAGUUUCUCUCCAACUCCCUCUGGGAAGGUGACCUGGCCAGAGCCAAGAAACACUUUCAGAAAAACAAAUGUGAAGGGGAGAGACAGG | 0.2 |
| AUCCUGUGUUUUCAGGCAGCAGUAUGCUUACUUUAAUCUCAUUCGUUCUGUGGCUAGGAUUGCUAGAGGGUCCUGCCUAUGUGAUUUGCUUUAGGAGAAGUUAAGAGGUA | 1.24 |

Sample 4
Target: CCND3, cyclin fold, Cln2 fusion (human)
Technique: yeast growth competition, sequencing
Sample: yeast
Notes: weak parent motif
Relative to: not given
Reading: higher = stronger binding
Starting sequence: E2F1 docking peptide (human); PPVKRRLDLETDH; partner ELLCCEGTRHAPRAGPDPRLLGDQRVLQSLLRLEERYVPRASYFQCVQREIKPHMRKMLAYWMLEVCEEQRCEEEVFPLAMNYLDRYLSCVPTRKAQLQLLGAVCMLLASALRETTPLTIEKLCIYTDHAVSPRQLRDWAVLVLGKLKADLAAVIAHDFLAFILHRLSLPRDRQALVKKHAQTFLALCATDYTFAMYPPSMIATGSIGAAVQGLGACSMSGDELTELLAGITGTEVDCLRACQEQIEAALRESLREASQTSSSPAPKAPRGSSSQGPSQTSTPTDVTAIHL
| Variant | normalised enrichment score |
| --- | --- |
| PPVKRRLDLPTDH [E10P] | 0.11 |
| PPVKRNLDLETDH [R6N] | 0.159 |
| VPVKRRLDLETDH [P1V] | 0.0536 |
| PPVFRRLDLETDH [K4F] | 0.152 |
| PPVKRRTDLETDH [L7T] | 0.124 |
| PPVKRRLDLYTDH [E10Y] | 0.0967 |
| PPVKRRLYLETDH [D8Y] | 0.0687 |
| PPVKRKLDLETDH [R6K] | 0.0186 |
| PGVKRRLDLETDH [P2G] | 0.169 |
| PPVKRQLDLETDH [R6Q] | 0.181 |
| PPVKRRLSLETDH [D8S] | 0.152 |
| PPVKRRLDLERDH [T11R] | 0.109 |
| PPVKRRADLETDH [L7A] | 0.107 |
| PPVKRRLDLQTDH [E10Q] | 0.122 |
| PPVKRSLDLETDH [R6S] | 0.0761 |
| PPVNRRLDLETDH [K4N] | 0.119 |

Sample 5
Target: MAFK, bZIP domain (human)
Technique: DHFR protein complementation
Sample: yeast
Notes: single substitutions, most at no-binding floor
Relative to: wild-type JUN-FOS pair
Reading: higher = stronger binding
Starting sequence: JUN, bZIP domain (human); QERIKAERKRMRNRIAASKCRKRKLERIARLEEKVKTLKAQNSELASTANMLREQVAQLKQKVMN; partner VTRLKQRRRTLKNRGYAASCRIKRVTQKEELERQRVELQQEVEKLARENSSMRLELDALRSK
| Variant | binding fitness |
| --- | --- |
| N42F | -1.45 natural log |
| E32R | -1.44 natural log |
| E44T | -1.5 natural log |
| K34G | -1.48 natural log |
| E32D | -1.56 natural log |
| S43F | -1.53 natural log |
| R53F | -1.49 natural log |
| A29T | -1.52 natural log |
| L38D | -1.47 natural log |
| K36I | -1.43 natural log |
| E32W | -1.49 natural log |
| T37A | -1.43 natural log |

Repeated from above (sample 4):
| Variant | normalised enrichment score |
| --- | --- |
| PGVKRRLDLETDH [P2G] | 0.169 |
| PPVNRRLDLETDH [K4N] | 0.119 |
| PPVKRRLDLERDH [T11R] | 0.109 |
| PPVKRRLDLQTDH [E10Q] | 0.122 |
| PPVKRSLDLETDH [R6S] | 0.0761 |
| PPVKRQLDLETDH [R6Q] | 0.181 |
| PPVKRKLDLETDH [R6K] | 0.0186 |
| PPVKRRLSLETDH [D8S] | 0.152 |
| PPVKRNLDLETDH [R6N] | 0.159 |
| PPVKRRLDLYTDH [E10Y] | 0.0967 |
